# Assay results gathered from unrelated publications.
# Each line is one published result; not all experiments were run side by side. ± marks the error that the study gave.
# UniProt O43613, sequence (whole entry, looked up): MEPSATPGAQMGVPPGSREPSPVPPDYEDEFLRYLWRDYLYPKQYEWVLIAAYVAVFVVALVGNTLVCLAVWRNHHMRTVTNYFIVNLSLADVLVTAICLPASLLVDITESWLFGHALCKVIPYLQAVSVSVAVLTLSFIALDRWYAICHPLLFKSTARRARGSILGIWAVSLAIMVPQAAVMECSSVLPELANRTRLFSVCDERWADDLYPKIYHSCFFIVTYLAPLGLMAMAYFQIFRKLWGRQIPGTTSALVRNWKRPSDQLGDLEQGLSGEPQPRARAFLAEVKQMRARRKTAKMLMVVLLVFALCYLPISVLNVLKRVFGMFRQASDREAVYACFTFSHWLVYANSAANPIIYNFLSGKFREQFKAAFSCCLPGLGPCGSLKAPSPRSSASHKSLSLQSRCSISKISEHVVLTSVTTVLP
SMILES,tested on,test,test system,conditions,quantity,result
CC(C)NC[C@@H](C(=O)N1CCN(c2ncnc3c2[C@H](C)C[C@H]3O)CC1)c1ccc(Cl)cc1,,,"human, Mild hepatic function, plasma","oral, 100 mg single dose, NCI classification, geometric mean",Cmax,0.0633 µg/mL
CO[C@H]1C[C@@H]2CC[C@@H](C)[C@@](O)(O2)C(=O)C(=O)N2CCCC[C@H]2C(=O)O[C@H]([C@H](C)C[C@@H]2CC[C@@H](O)[C@H](OC)C2)CC(=O)[C@H](C)/C=C(\C)[C@@H](O)[C@@H](OC)C(=O)[C@H](C)C[C@H](C)/C=C/C=C/C=C/1C,,,"human, whole blood","oral, 20 mg, together with: grapefruit juice",Cmax,0.105 µg/mL
Cc1cc(Nc2cc3ncccc3c(N[C@@H]3C[C@H]4CC[C@@H](C3)N4CCC#N)n2)n[nH]1,,,"beagle dog, male, plasma","oral, 30 mg/kg/day, last day of 39 weeks",Cmax,0.0703 µg/mL
CS(=O)(=O)c1ccc(-c2cnc(N)c(-c3ccc(C(F)(F)F)nc3)c2)cc1,,,"pregnant female Sprague-Dawley rat, plasma","oral, 3 mg/kg/day, gestation day 6",Cmax,0.626 µg/mL
CC1=C2C[C@H]3[C@@H](CC[C@@H]4C[C@H](NS(C)(=O)=O)CC[C@@]43C)[C@@H]2CC[C@@]2(C1)O[C@@H]1C[C@H](C)CN[C@H]1[C@H]2C,,,"patients, plasma","oral, 200 mg single, day -7, cycle 1",Cmax,0.123 µg/mL
C=CC(N)CCC(=O)O (stereo not drawn),,,"male Sprague-Dawley rat, plasma","oral, 1.0 mg/kg, formulation 2, together with: infant formula 1500 mg/kg",Cmax,0.965 ± 0.064 µg/mL
CCCN(CCC)c1cc(CC2c3cc(OC)c(OC)cc3CCN2CC(=O)NCc2ccccc2)ccc1OC (stereo not drawn),"Orexin/Hypocretin receptor type 1 (HCRTR1, Homo sapiens, UniProt O43613)","calcium signal, antagonist, fluorescence",,,Kb,0.857 µM
O=C(CCCCCCC(=O)Nc1ccccc1)NO,,,"patients, serum","oral, 1000 mg, cycle 1 day 2, together with: flavopiridol 30+30 mg/m2",Cmax,12.7 µM
CCCC[C@H](NC(C)=O)C(=O)N[C@H]1CCC(=O)NC[C@@H](C(=O)N[C@@H](Cc2c[nH]c3ccccc23)C(N)=O)NC(=O)[C@H](CCCNC(=N)N)NC(=O)[C@@H](Cc2ccccc2)NC(=O)[C@H](Cc2c[nH]cn2)NC1=O,,,"beagle dog, male, plasma","subcutaneous, 40.0 mg/kg daily, day 1",Cmax,0.633 µg/mL
O=c1[nH]c(=O)c(Cc2cccc(C(F)(F)F)c2)c([C@H]2CC[C@H](c3ccccc3)CC2)[nH]1,,,"human, plasma","oral, 900 mg once daily, day 14, geometric mean",Cmax,0.935 µg/mL
CC(C)=CCC[C@](C)(O[C@@H]1O[C@H](CO)[C@@H](O)[C@H](O)[C@H]1O)[C@H]1CC[C@]2(C)[C@@H]1[C@H](O)C[C@@H]1[C@@]3(C)CC[C@H](O[C@@H]4O[C@H](CO)[C@@H](O)[C@H](O)[C@H]4O[C@@H]4O[C@H](CO)[C@@H](O)[C@H](O)[C@H]4O)C(C)(C)[C@@H]3CC[C@]12C,,,"Sprague-Dawley rat, plasma","oral, 200 mg/kg ginsenoside Rb1",Cmax,0.0724 ± 0.0316 µg/mL
CCN1CCN(c2ccc(Nc3cc(N(C)C(=O)Nc4c(Cl)c(OC)cc(OC)c4Cl)ncn3)cc2)CC1,,LC-MS/MS,"juvenile female Crl:WI(Han) rats, plasma","oral gavage, 0.1 mg/kg/day, postnatal day 17",Cmax,0.00906 µg/mL

# Excerpt of the above:
SMILES,tested on,test,test system,conditions,quantity,result
CC1=C2C[C@H]3[C@@H](CC[C@@H]4C[C@H](NS(C)(=O)=O)CC[C@@]43C)[C@@H]2CC[C@@]2(C1)O[C@@H]1C[C@H](C)CN[C@H]1[C@H]2C,,,"patients, plasma","oral, 200 mg single, day -7, cycle 1",Cmax,0.123 µg/mL
